Measurements pooled from the literature.
Lines come from different studies, so protocols differ. Values joined by “and” are separate records of one study, mostly repeats; a detail may differ. ± marks the error that the study gave. Converted amounts (≈) assume the structure as drawn.

CN(C)C(=O)N1CC[C@H](N=C2Nc3cc(F)ccc3N(CC(F)F)c3ccc(Cl)cc32)C1 gave an inhibition of 10% (mouse hepatitis virus; viral replication; nanoluciferase reporter; 1 µM).
CCCCCCCCCCCc1c([N+](=O)[O-])oc2ccc3ccccc3c12 has an MIC90 of over 32 µg/mL (Salmonella enterica; REMA).
CCOC(=O)c1[nH]c2cc(Cl)ccc2c1C(C(=O)NC(C)(C)C)N(C=O)Cc1ccc(Cl)cc1 (stereo not drawn) gave a maximum inhibition of 0% (human coronavirus OC43; virus-induced cell killing; MRC-5; maximum over 10 doses).
With N=C(N)NCCC[C@H](NC(=O)CN)C(=O)N[C@@H](Cc1c[nH]c2ccccc12)C(=O)N[C@@H](CCCNC(=N)N)C(=O)N[C@@H](Cc1c[nH]c2ccccc12)C(=O)N[C@@H](Cc1c[nH]c2ccccc12)C(=O)N[C@@H](Cc1c[nH]c2ccccc12)C(=O)N[C@@H](CCCNC(=N)N)C(=O)N[C@@H](Cc1c[nH]c2ccccc12)C(=O)N[C@@H](CCCNC(=N)N)C(=O)N[C@@H](Cc1ccccc1)C(N)=O the MIC was 16 µM (≈ 28.4 µg/mL) (Candida albicans; broth microdilution; CGMCC 2.209, RPMI 1640-MOPS; 48 h, 30 °C, with: CaCl2 2 mM).
With Cn1c(=O)ccc2ccc(F)c(CCNC[C@H]3CN(c4cnc5c(n4)NC(=O)CO5)C(=O)O3)c21 the MIC90 was 0.5 µg/mL (≈ 1.07 µM) (Klebsiella oxytoca).
CCCCc1ccc(CNc2nc(N(C)C)nc(N(C)C)c2/N=N/c2ccc(Cl)cc2)cc1 has a mortality of 46.7% (Ostrinia furnacalis; leaf dipping; 12.5 mg/L).
With CCOC(=O)COc1ccc2ccc3oc([N+](=O)[O-])cc3c2c1 the MIC90 was 0.5 µg/mL (≈ 1.59 µM) (Salmonella enterica; REMA).
The fold enrichment of Nc1ncnc2c1ncn2[C@@H]1O[C@@H]2COP(=O)(O)O[C@H]3[C@@H](O)[C@H](n4cnc5c(=O)[nH]cnc54)O[C@@H]3COP(=O)(O)O[C@H]2[C@H]1O is reported as 3.37 (West Nile virus; RNA sequencing Reactome analysis, measured: Muscle contraction (R-HSA-397014); HFF-1; concentration not given, downregulated pathways, with: West Nile virus infection; relative to: WNV-infected without compound).
CC[C@H](C)[C@H](NC(=O)[C@H](C)NC(=O)[C@H](CCCCN)NC(=O)[C@H](CC(C)C)NC(=O)[C@H](C)NC(=O)[C@@H](NC(=O)[C@H](Cc1c[nH]cn1)NC(=O)[C@H](CC(C)C)NC(=O)[C@@H](NC(=O)[C@@H](NC(=O)[C@H](CCCCN)NC(=O)[C@H](C)NC(=O)[C@H](C)NC(=O)[C@H](CO)NC(=O)[C@H](CCCCN)NC(=O)[C@H](Cc1ccccc1)NC(=O)[C@@H](NC(=O)[C@H](CCCCN)NC(=O)[C@H](CC(C)C)NC(=O)[C@H](Cc1ccccc1)NC(=O)[C@H](CO)NC(=O)[C@H](CCCCN)NC(=O)[C@H](Cc1c[nH]c2ccccc12)NC(=O)[C@H](CCCCN)NC(C)=O)[C@@H](C)O)[C@@H](C)O)C(C)C)[C@@H](C)O)C(=O)N[C@@H](CO)C(=O)N[C@@H](CO)C(N)=O has an MIC range of 8 µg/mL (≈ 2.73 µM) (Streptococcus pyogenes; ATCC 19615).
COC(=O)N[C@H](C(=O)N1CCC[C@H]1c1ncc(-c2ccc(-c3ccc(-c4cnc([C@@H]5CCCN5C(=O)[C@@H](NC(=O)OC)C(C)C)[nH]4)cc3)cc2)[nH]1)C(C)C has a combination index of 0.77 (Hepatitis C virus; replicon cells; 90% effect level, with: NS5B palm site II inhibitor, ratio 1:1).
Under “relative wound size”, C=CC[C@@H]1c2ccc(OC)c(OC)c2CN2CCc3cc4c(cc3[C@H]12)OCO4 is recorded as 0.98 and 0.89 and 0.66 and 0.82 and 0.86 (Staphylococcus aureus; P2rx7 A312V/A312V mice, skin wound infection; dose not given, day 5; relative to: day 0).
CCCCc1nc2cc(/C=C/C(=O)NO)ccc2n1CCN(CC)CC has a maximum inhibition of 0% (human coronavirus OC43; virus-induced cell killing; MRC-5; maximum over 10 doses).
With C[C@@H]1C[C@@H]([C@H](O)CC2CC(=O)NC(=O)C2)C(=O)[C@@H](C)C1 the Emax was 72% (Mus musculus; gene silencing, high-content imaging; LDR reporter GFP cells; 30 h, retest run 2).
The MIC90 of N#Cc1ccc2c(ccc3oc([N+](=O)[O-])cc32)c1 is reported as over 32 µg/mL (Mycobacteroides abscessus; REMA; ATCC 19977).
C[C@@H](N)[C@H]1CC[C@H](C(=O)Nc2ccncc2)CC1 gave an inhibition of 11% (mouse hepatitis virus; viral replication; nanoluciferase reporter; 1 µM).
OC[C@H]1O[C@@H](n2ccc3c(SCc4ccc(F)cc4F)ncnc32)[C@H](O)[C@@H]1O gave a survival of 0% (Toxoplasma gondii; [3H]uracil incorporation; human fibroblasts, RH wild type; 50 µM).
O=C(/C=C/c1cccnc1)c1ccncc1 has a maximum inhibition of 4.3% (human coronavirus OC43; virus-induced cell killing; MRC-5; screen).
Cc1c2c(nn1C)CSCc1cc(n(C)n1)CSc1cc(c3ccccc3c1)OCCCc1c(C(=O)O)n(C)c3c-2c(Cl)ccc13 has a fold change of 0.0171 (Staphylococcus aureus; label-free quantitative proteomics, measured: SAOUHSC_00113 protein; SA113; concentration not given; relative to: untreated control).
Cc1c([N+](=O)[O-])oc2ccc3ccccc3c12 gave an MIC90 of under 0.25 µg/mL (Salmonella enterica; REMA).
COc1ccc([C@@]23Oc4cc(OC)cc(OC)c4[C@@]24N=C(C)N[C@@]4(O)[C@H](C(=O)N(C)OC)[C@H]3c2ccccc2)cc1 has an EC50 of 1 nM (Hepatitis E virus; viral replication; HepG2 HEV-3 replicon, genotype 3; 24 h, racemate).
The maximum inhibition of CC#C[C@]1(O)CC[C@H]2[C@@H]3CCC4=CC(=O)CCC4=C3[C@@H](c3ccc(N(C)C)cc3)C[C@@]21C is reported as 23.9% (human coronavirus OC43; virus-induced cell killing; MRC-5; screen).
The inhibition of CCOc1cn(-c2ccc(F)cc2C)nc1C(=O)Nc1ccc(Oc2ccnc3cc(OC)c(OC)cc23)c(F)c1 is reported as 19% (mouse hepatitis virus; viral replication; nanoluciferase reporter; 1 µM).
c1ccc2c(c1)[I+]c1ccccc1-2 gave an EC50 of 10 nM (Toxoplasma gondii; TgMe49-Fluc, type II; tachyzoites).
CC(C)(C)c1cc(C(=O)/C(C#N)=N/Nc2cccc(Cl)c2)no1 gave a maximum inhibition of 12.5% (human coronavirus OC43; virus-induced cell killing; MRC-5; screen).
N=C(N)c1ccc(OCc2cc(Br)cc(COc3ccc(C(=N)N)cc3)c2)cc1 has an FICI of at most 0.078 (Escherichia coli; checkerboard; BW25113 mcr-1 plasmid; unit not given, with: rifampicin; lower = stronger synergy).
S=C(NCc1ccc2c(c1)OCO2)N1CCN(c2ncnc3c2oc2ccccc23)CC1 gave a maximum inhibition of 2.96% (human coronavirus OC43; virus-induced cell killing; MRC-5; screen).
OC[C@H]1O[C@@H](n2ccc3c(SCc4ccc(Cl)cc4Cl)ncnc32)[C@H](O)[C@@H]1O gave a survival of 51.7% (Toxoplasma gondii; [3H]uracil incorporation; human fibroblasts, RH wild type; 10 µM).
The maximum inhibition of Cc1cc(C)c(S(=O)(=O)n2cc(C)cc2C)c(C)c1 is reported as 4.7% (human coronavirus OC43; virus-induced cell killing; MRC-5; screen).
CC[C@H]1OC(=O)[C@H](C)[C@@H](O[C@H]2C[C@@](C)(OC)[C@@H](O)[C@H](C)O2)[C@H](C)[C@@H](O[C@@H]2O[C@H](C)C[C@H](N(C)C)[C@H]2O)[C@](C)(O)C[C@@H](C)CN(C)[C@H](C)[C@@H](O)[C@]1(C)O gave an MIC90 of over 32 µg/mL (Staphylococcus, coagulase-negative).
The EC50 of Fc1ccc(C(OCCN2CCN(CCCc3ccccc3)CC2)c2ccc(F)cc2)cc1 is reported as 12900 nM (Toxoplasma gondii; parasite growth; HFF, bradyzoite, alkaline-induced).
For CCC[C@@H]1C[C@@H](C(=O)N[C@@H]([C@H]2O[C@H](SC)[C@H](O)[C@@H](O)[C@H]2O)[C@H](C)Cl)N(C)C1, the MIC90 was over 32 µg/mL (Staphylococcus, coagulase-negative).
For OC[C@H]1O[C@@H](n2ccc3c(SCc4ccc(Cl)c(Cl)c4)ncnc32)[C@H](O)[C@@H]1O, the IC50 was 11500 ± 1400 nM (Toxoplasma gondii; intracellular parasite growth, [3H]uracil incorporation; human foreskin fibroblasts, RH wild type).
CNC[C@H](O)[C@@H](O)[C@H](O)[C@H](O)CO.[O]=[Sb](=[O])[OH] — result for “lesion size difference”: 6.36 (Leishmania major; BALB/c mouse; topical, dose not given, 14 days, unit not given; relative to: PBS).
With Oc1ccc(Nc2nc(-c3ccc(Cl)cc3)cs2)cc1 the maximum inhibition was 31.7% (human coronavirus OC43; virus-induced cell killing; MRC-5; screen).
With C[C@H]1CCC/C=C/[C@@H]2C[C@H](O)C[C@H]2[C@H](O)/C=C/C(=O)O1 the EC50 was 50 nM (Toxoplasma gondii; tachyzoite growth, luciferase; ME49-Fluc, type II).
CO/N=C(\C(=O)N[C@@H]1C(=O)N2C(C(=O)O)=C(CSC(=O)c3ccco3)CS[C@H]12)c1csc(N)n1 gave an MBC of 64 µg/mL (Staphylococcus aureus; CAAS-2019-CAAS-2019-14 clinical blaZ-resistant isolate, 25% plasma).

A few entries again:
O=C(/C=C/c1cccnc1)c1ccncc1 has a maximum inhibition of 4.3% (human coronavirus OC43; virus-induced cell killing; MRC-5; screen).
The maximum inhibition of Cc1cc(C)c(S(=O)(=O)n2cc(C)cc2C)c(C)c1 is reported as 4.7% (human coronavirus OC43; virus-induced cell killing; MRC-5; screen).
The fold enrichment of Nc1ncnc2c1ncn2[C@@H]1O[C@@H]2COP(=O)(O)O[C@H]3[C@@H](O)[C@H](n4cnc5c(=O)[nH]cnc54)O[C@@H]3COP(=O)(O)O[C@H]2[C@H]1O is reported as 3.37 (West Nile virus; RNA sequencing Reactome analysis, measured: Muscle contraction (R-HSA-397014); HFF-1; concentration not given, downregulated pathways, with: West Nile virus infection; relative to: WNV-infected without compound).
S=C(NCc1ccc2c(c1)OCO2)N1CCN(c2ncnc3c2oc2ccccc23)CC1 gave a maximum inhibition of 2.96% (human coronavirus OC43; virus-induced cell killing; MRC-5; screen).
